{"data": "Published values gathered from unrelated publications", "UCHL1": "Ubiquitin carboxyl-terminal hydrolase isozyme L1 (UCHL1, Homo sapiens, UniProt P09936)", "note": "Lines come from different studies, so protocols differ. Numbers after ± are the reported error.", "chain of UniProt P09936 (whole entry, looked up)": "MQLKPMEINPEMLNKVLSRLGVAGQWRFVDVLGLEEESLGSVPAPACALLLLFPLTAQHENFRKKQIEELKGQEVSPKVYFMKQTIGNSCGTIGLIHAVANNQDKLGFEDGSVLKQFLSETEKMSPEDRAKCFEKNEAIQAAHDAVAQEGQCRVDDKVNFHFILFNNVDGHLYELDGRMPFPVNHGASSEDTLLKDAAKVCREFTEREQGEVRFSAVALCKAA"}
{"SMILES": "CC(C)Oc1ccc(CNCCC2(C(C)C)CCOC(C)(C)C2)cc1 (centres unmarked)", "target or system": "Trypanosoma cruzi", "assay": "reporter translation, Renilla luciferase mRNA translation", "test system": "cell-free extract", "conditions": "40 µM", "scale": "baseline: DMSO", "measurement": "inhibition", "result": "34.8%"}
{"SMILES": "Cc1ccc(N/N=C2\\Sc3ccccc3C2=O)cc1", "target or system": "HIV-1", "assay": "viral cytopathic effect, MTT", "test system": "MT4, IIIB", "measurement": "EC50", "result": "> 100000 nM"}
{"SMILES": "CCCC(=O)OCSc1ccccc1C(=O)NCCn1cc(C(=O)NCc2cccc(C)n2)c(=O)c2cc3c(cc21)OC(F)(F)O3", "target or system": "HIV-1", "assay": "viral replication", "test system": "human PBMC, 92RW009", "measurement": "EC50", "result": "4260 ± 860 nM"}
{"SMILES": "Cc1ccnc2c1NC(=O)c1cccnc1N2C1CC1", "target or system": "HIV-1", "assay": "viral replication, MTT", "test system": "MT4, IIIB wild type", "measurement": "EC50", "result": "140 ± 70 nM"}
{"SMILES": "CCCC(=O)OCSc1ccccc1C(=O)NCCn1ccc(=O)c2cc3c(cc21)OCO3", "target or system": "HIV-1", "assay": "virus-induced cytopathic effect, inhibitor, XTT", "test system": "CEM-SS, RF", "conditions": "6 days", "measurement": "EC50", "result": "1150 ± 370 nM"}
{"SMILES": "c1ccc(/N=N/C(=N/Nc2ccccc2)c2ccccc2)cc1", "target or system": "HIV-1", "assay": "viral cytopathic effect, MTT", "test system": "MT4, IIIB", "measurement": "EC50", "result": "> 5000 nM"}
{"SMILES": "Cc1c(O)cccc1C(=O)N[C@@H](CSc1ccccc1)[C@H](O)CN1C[C@H]2CCCC[C@H]2C[C@H]1C(=O)NC(C)(C)C", "target or system": "HIV-1", "assay": "infectivity of progeny virus", "test system": "HEK293FT, NL4-3", "measurement": "EC50", "result": "20 nM"}
{"SMILES": "Nc1ccn([C@@H]2CS[C@H](CO)O2)c(=O)n1", "target or system": "HIV-1", "assay": "viral replication, MTT", "test system": "MT4, IIIB wild type", "measurement": "EC50", "result": "690 ± 350 nM"}
{"SMILES": "Cc1nc(NCCCNc2ccnc3cc(Cl)ccc23)nc(-c2cccc([N+](=O)[O-])c2)c1C(=O)OC(C)C", "target or system": "HIV-1", "assay": "viral replication", "test system": "CCRF-CEM, IIIB", "measurement": "EC50", "result": "> 10000 nM"}
{"SMILES": "CCCC(=O)OCSc1ccccc1C(=O)NCCn1ccc(=O)c2cc(OC)ccc21", "target or system": "HIV-1", "assay": "virus-induced cytopathic effect, inhibitor, XTT", "test system": "CEM-SS, RF", "conditions": "6 days", "measurement": "EC50", "result": "690 ± 960 nM"}
{"SMILES": "CC(=O)c1ccc2c(c1)N(CCCN(C)C)c1ccccc1S2", "target or system": "HIV-1", "assay": "cytopathicity, XTT", "test system": "CEM-SS, RF", "conditions": "6 days", "measurement": "EC50", "result": "> 16000 nM"}
{"SMILES": "Cc1cn([C@H]2C[C@H](N=[N+]=[N-])[C@@H](CO)O2)c(=O)[nH]c1=O", "target or system": "HIV-1", "assay": "viral replication, reverse transcriptase", "test system": "human PBMC, 92HT599 (CXCR4-tropic)", "conditions": "7 days", "measurement": "EC50", "result": "8 ± 0.2 nM"}
{"SMILES": "COCC/N=c1/scc(-c2cccs2)n1/N=C/c1cc(Br)c(O)c(OC)c1", "target or system": "HIV-1", "assay": "viral cytopathic effect, MTT", "test system": "MT4, IIIB", "measurement": "EC50", "result": "> 15000 nM"}
{"SMILES": "Cc1ccc(-c2cn(Cc3cccc(Cl)c3)c3[n+]2CCC3)cc1.[Br-]", "target or system": "Trypanosoma cruzi", "assay": "reporter translation, Renilla luciferase mRNA translation", "test system": "cell-free extract", "conditions": "40 µM", "scale": "baseline: DMSO", "measurement": "inhibition", "result": "-4.2%"}
{"SMILES": "CCCC(C(=O)O)c1c(C)nc2ccc(Cl)cc2c1-c1ccccc1 (centres unmarked)", "target or system": "HIV-1", "assay": "viral replication, refers to: Gag p24", "test system": "MT-4, NL4-3", "conditions": "7 days", "measurement": "EC50", "result": "7010 ± 5410 nM"}
{"SMILES": "CCCC(=O)OCSc1ccccc1C(=O)NCCn1cc(C(=O)NCc2nc(-c3ccccn3)no2)c(=O)c2cc3c(cc21)OCO3", "target or system": "HIV-1", "assay": "virus-induced cytopathic effect, inhibitor, XTT", "test system": "CEM-SS, RF", "conditions": "6 days", "measurement": "EC50", "result": "1510 ± 270 nM"}
{"SMILES": "O=C(N/N=C/c1cc(Br)ccc1O)c1cccnc1", "target or system": "HIV-1", "assay": "viral cytopathic effect, MTT", "test system": "MT4, IIIB", "measurement": "EC50", "result": "> 3000 nM"}
{"SMILES": "COc1ccc(S(=O)(=O)N(CC(C)C)C[C@@H](O)[C@H](Cc2ccccc2)NC(=O)O[C@H]2CCC[C@]23CCO[C@H](c2ccccc2OC)C3)cc1", "target or system": "HIV-1", "assay": "viral replication", "test system": "MT2, LAI", "measurement": "EC50", "result": "210 nM"}
{"SMILES": "Cc1ccc(C)c(-c2cc(NC(=O)CCl)n(-c3ccccc3)n2)c1", "target or system": "UCHL1", "assay": "covalent, intact protein LC-MS", "conditions": "12.5 µM", "measurement": "labelling", "result": "13.8%"}
{"SMILES": "CCCC(=O)OCSc1ccccc1C(=O)NCCn1cc(C(=O)NN2CCN(C)CC2)c(=O)c2cc3c(cc21)OCO3", "target or system": "HIV-1", "assay": "virus-induced cytopathic effect, inhibitor, XTT", "test system": "CEM-SS, RF", "conditions": "6 days", "measurement": "EC50", "result": "3020 ± 4160 nM"}
{"SMILES": "CCOc1cccc(/C=N/NC(=O)c2n[nH]c3c2CCC3)c1O", "target or system": "HIV-1", "assay": "viral cytopathic effect, MTT", "test system": "MT4, IIIB", "measurement": "EC50", "result": "> 4000 nM"}
{"SMILES": "O=C(CCl)NSc1ccc([N+](=O)[O-])cc1", "target or system": "UCHL1", "assay": "covalent, intact protein LC-MS", "conditions": "12.5 µM", "measurement": "labelling", "result": "3.64%"}
{"SMILES": "CC/N=c1/scc(-c2ccc(Br)cc2)n1/N=C/c1ccc(O)c(O)c1O", "target or system": "HIV-1", "assay": "viral cytopathic effect, MTT", "test system": "MT4, IIIB", "measurement": "EC50", "result": "> 35000 nM"}
{"SMILES": "N#C/C=C/c1ccc2c(S(=O)(=O)n3nc(Nc4ccc(C#N)c(Cl)c4)nc3N)cccc2c1", "target or system": "HIV-1", "assay": "viral replication", "test system": "TZM-bl, IIIB wild type", "conditions": "48 h", "measurement": "EC50", "result": "1.78 ± 0.88 nM"}
{"SMILES": "CCN(CC)c1ccc(/C=C2\\CCC(/C=N/N=C/c3cccnc3)=C2N2CCOCC2)cc1", "target or system": "HIV-1", "assay": "viral cytopathic effect, MTT", "test system": "MT4, IIIB", "measurement": "EC50", "result": "> 20000 nM"}
{"SMILES": "Cc1cc(/C=C/C#N)cc(C)c1Nc1ccnc(Nc2ccc(C#N)cc2)n1", "target or system": "HIV-1", "assay": "viral replication, MTT", "test system": "MT4, IIIB wild type", "measurement": "EC50", "result": "2.5 ± 0.7 nM"}
